Measured values gathered from unrelated publications.
Numbers after ± are the reported error.

SMILES | organism | test | system | setting | EC50
Nc1ncnc2c1c(Cl)cn2[C@@H]1O[C@H](CO)[C@@H](O)[C@H]1O | Trypanosoma equiperdum | parasite growth, resazurin |  | 72 h | 0.12 µM
CC(=O)Oc1ccc(Cn2cc(F)c(=O)[nH]c2=O)cc1C1OC(c2ccc(Cl)cc2)=NN1C(C)=O (stereo not drawn) | varicella-zoster virus | plaque formation, plaque reduction | HEL fibroblasts, TK+ strain OKA |  | > 20 µM
O=c1cc[s+]([O-])c2ccc(Cl)cc12 (single isomer, unassigned; (+)) | Leishmania panamensis | parasite growth, flow cytometry | U-937 | 72 h, intracellular, amastigote | 214 µM
Cc1cn(C2CC(N(C)C)C(CO)O2)c(=O)[nH]c1=O (stereo not drawn) | reovirus 1 | viral replication | Vero |  | > 0.37 µM
CC(=O)Oc1ccc(Cn2cc(C)c(=O)[nH]c2=O)cc1C1OC(c2ccccc2)=NN1C(C)=O (stereo not drawn) | varicella-zoster virus | plaque formation, plaque reduction | HEL fibroblasts, TK- strain 07-1 |  | > 100 µM
CNC(=O)c1ccc(-c2cnc3cnc(C(=O)N(C)c4ccc(Cl)cc4)cn23)cc1 | Cryptosporidium hominis | cytopathic effect | HCT-8 |  | 0.082 µM
CC(=O)Oc1ccc(Cn2cc(F)c(=O)[nH]c2=O)cc1C1OC(c2cccc(Cl)c2)=NN1C(C)=O (stereo not drawn) | varicella-zoster virus | plaque formation, plaque reduction | HEL fibroblasts, TK- strain 07-1 |  | > 20 µM
CC(C)OC(=O)[C@H](Cc1ccccc1)NP(=O)(COCCn1cnc2c(=O)[nH]c(=O)[nH]c21)N[C@@H](Cc1ccccc1)C(=O)OC(C)C | varicella-zoster virus | plaque formation | HEL, TK- 07-1 |  | 26.5 µM
CN(C(=O)c1ccn2ncc(-c3ccc(C(N)=O)cc3)c2c1)c1ccc(C#N)cn1 | Cryptosporidium hominis | cytopathic effect | HCT-8 |  | 0.13 µM
CC(=O)Oc1ccc(Cn2cc(C)c(=O)[nH]c2=O)cc1C1OC(c2cccc(Cl)c2)=NN1C(C)=O (stereo not drawn) | varicella-zoster virus | plaque formation, plaque reduction | HEL fibroblasts, TK- strain 07-1 |  | > 20 µM
O=C1C(Cc2ccc(C(F)(F)F)cc2)=CS(=O)(=O)c2ccccc21 | Leishmania panamensis | parasite growth, flow cytometry | U-937 | 72 h, intracellular, amastigote | 3.96 µM
CC(=O)Oc1ccc(Cn2cc(C)c(=O)[nH]c2=O)cc1C1OC(c2ccc(Cl)cc2)=NN1C(C)=O (stereo not drawn) | varicella-zoster virus | plaque formation, plaque reduction | HEL fibroblasts, TK+ strain OKA |  | > 20 µM
CCOC(=O)/C=C/[C@H](C[C@@H]1CCNC1=O)NC(=O)[C@@H]1[C@@H]2[C@H](CN1C(=O)[C@@H](NC(=O)C(F)(F)F)C(C)(C)C)C2(C)C | HCoV-229E | viral replication | MRC-5 | 96 h | 1.29 ± 0.664 µM
CCOC(=O)[C@@H](C)NP(=O)(CO[C@H](CF)CN1CNC(N)=NC1=O)N[C@H](C)C(=O)OCC | varicella-zoster virus | plaque formation | HEL, TK-deficient 07-1 |  | > 100 µM
COc1ccccc1CNC(=O)CSc1c[nH]c2ccccc12 | human coronavirus OC43 | viral cytopathic effect, MTS | HCT-8 | 120 h | 1.13 µM
O=C1/C(=N\NC(=S)NN=Cc2cccs2)c2ccccc2N1Cc1ccccc1 | varicella-zoster virus | plaque formation | HEL, TK+ |  | > 20 µM
CC(=O)Oc1ccc(Cn2cc(F)c(=O)[nH]c2=O)cc1C1OC(c2ccccc2)=NN1C(C)=O (stereo not drawn) | varicella-zoster virus | plaque formation, plaque reduction | HEL fibroblasts, TK- strain 07-1 |  | > 100 µM
CN(C(=O)c1ccn2ncc(-c3ccc(C(F)(F)F)cc3)c2c1)c1ccc(C#N)cn1 | Cryptosporidium hominis | cytopathic effect | HCT-8 |  | 2.54 µM
CN(C)c1ccc(C=Nn2c(-c3ccccc3)nc3ccccc3c2=O)cc1 | reovirus 1 | viral replication | Vero |  | > 20 µg/mL
CC(=O)Oc1ccc(Cn2ccc(=O)[nH]c2=O)cc1C1OC(c2ccccc2)=NN1C(C)=O (stereo not drawn) | varicella-zoster virus | plaque formation, plaque reduction | HEL fibroblasts, TK- strain 07-1 |  | > 100 µM
CCCCCCCC1=CC(=O)c2ccccc2S1(=O)=O | Leishmania panamensis | parasite growth, flow cytometry | U-937 | 72 h, intracellular, amastigote | 62.4 µM
CCCCCCC(CC=CCCCCCCCC(=O)OCCOCn1cnc2c(=O)[nH]c(N)nc21)OC(=O)CCCCC1SCC2NC(=O)NC21 (stereo not drawn) | Epstein-Barr virus | viral DNA accumulation, DNA hybridization | Akata cells | 72 h | 2.1 µM
Nc1ncnc2c1c(Br)cn2[C@@H]1O[C@H](CO)[C@@H](O)[C@H]1O | Trypanosoma equiperdum | parasite growth, resazurin |  | 72 h | 0.085 µM
CNC(=O)c1ccc(-c2cnn3ccc(C(=O)N(C)c4ccc(C#N)cn4)cc23)cc1 | Cryptosporidium hominis | cytopathic effect | HCT-8 |  | 0.119 µM

For quick reference, copied from above:
SMILES | organism | test | system | setting | EC50
CC(=O)Oc1ccc(Cn2cc(C)c(=O)[nH]c2=O)cc1C1OC(c2ccc(Cl)cc2)=NN1C(C)=O (stereo not drawn) | varicella-zoster virus | plaque formation, plaque reduction | HEL fibroblasts, TK+ strain OKA |  | > 20 µM
CCOC(=O)/C=C/[C@H](C[C@@H]1CCNC1=O)NC(=O)[C@@H]1[C@@H]2[C@H](CN1C(=O)[C@@H](NC(=O)C(F)(F)F)C(C)(C)C)C2(C)C | HCoV-229E | viral replication | MRC-5 | 96 h | 1.29 ± 0.664 µM
